Results from different studies.
Parts stem from different laboratories: compare values within a part only. Substitutions count along the parent as printed.

Sample 1
Target: Sal-like protein 4, full length isoform B (SALL4, Homo sapiens, UniProt Q9UJQ4-2, residues 1-616)
Technique: universal PBM
Molecule type: double-stranded DNA, one strand shown
Matrix: in vitro
Tested at: not given
Notes: 8-mer, flanks averaged, mean of replicates
Direction: higher = stronger binding
Residues (chain): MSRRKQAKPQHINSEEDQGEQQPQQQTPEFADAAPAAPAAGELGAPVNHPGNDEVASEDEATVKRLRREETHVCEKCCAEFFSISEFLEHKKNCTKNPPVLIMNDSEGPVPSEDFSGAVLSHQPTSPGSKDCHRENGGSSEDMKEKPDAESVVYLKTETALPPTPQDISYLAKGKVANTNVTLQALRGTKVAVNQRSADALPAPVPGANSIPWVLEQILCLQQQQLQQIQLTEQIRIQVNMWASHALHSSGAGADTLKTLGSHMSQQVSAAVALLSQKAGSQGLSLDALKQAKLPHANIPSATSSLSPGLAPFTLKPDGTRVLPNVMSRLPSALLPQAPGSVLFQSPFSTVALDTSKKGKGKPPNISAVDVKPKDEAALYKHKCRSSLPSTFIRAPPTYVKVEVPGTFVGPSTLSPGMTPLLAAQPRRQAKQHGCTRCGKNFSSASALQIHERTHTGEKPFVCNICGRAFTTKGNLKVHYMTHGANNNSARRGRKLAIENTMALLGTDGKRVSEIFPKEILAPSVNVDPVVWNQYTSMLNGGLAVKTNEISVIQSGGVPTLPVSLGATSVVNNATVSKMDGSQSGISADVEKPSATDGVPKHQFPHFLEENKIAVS
With `CACCAAAA` the E-score was 0.214.
`GACATAGA` has an E-score of 0.124.
`AGCATAAT` has an E-score of 0.321.
The E-score of `AAAAGAAG` is reported as 0.179.
For `AAACAGAT`, the E-score was 0.157.
For `ATCCGCTA`, the E-score was -0.0635.
The E-score of `TCCAGTCA` is reported as -0.0933.
For `AAGGGAAC`, the E-score was -0.152.
The E-score of `ATAGTCTC` is reported as 0.0831.
`GGGGCTAC` has an E-score of -0.269.
`ACATTGCG` gave an E-score of 0.0169.
For `GACACGTA`, the E-score was 0.101.
The E-score of `ATCACTTG` is reported as 0.0559.
`ACCTTAGT` has an E-score of -0.0186.
`TTAAATAA` gave an E-score of 0.327.
`CCCGGCAG` gave an E-score of -0.389.
With `AGCGTTTA` the E-score was -0.0474.
With `GCAAGACA` the E-score was 0.00494.
For `GTAGGGAC`, the E-score was -0.1.
The E-score of `CGATAATC` is reported as 0.0476.
With `CAGATGGC` the E-score was -0.117.
With `CAACCAGC` the E-score was -0.285.
`AGAATTAC` gave an E-score of 0.15.
With `CGACAATA` the E-score was 0.272.
For `GAGTTAGA`, the E-score was -0.0549.

Sample 2
Target: RNA binding protein fox-1 homolog 2, RRM domain, GST-SBP tag (RBFOX2, Homo sapiens, UniProt O43251-10, residues 100-194)
Technique: RNA Bind-n-Seq
Molecule type: RNA
Matrix: in vitro
Tested at: 365 nM
Notes: natural RNA segment, single round, ends assumed
Reference: no-protein control
Direction: higher = stronger binding
All sequences stand within: GGGAGUUCUACAGUCCGACGAUC … UGGAAUUCUCGGGUGCCAA
Target sequence (chain): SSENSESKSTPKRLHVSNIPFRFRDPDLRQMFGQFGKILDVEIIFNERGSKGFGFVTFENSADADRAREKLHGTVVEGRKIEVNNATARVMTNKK
`CAGGGUCCUGCUAUUUCCCAAGCUGGAGUGCAGUGGUGCGAUCAUGGCUCACUGCAGCCUCGAACUCCUGGGCUCAAGCAAUCCUCCUGAGUGAUCCCAUUUCUUAAUCA` — result for “RBNS enrichment (R)”: 0.245.
Under “RBNS enrichment (R)”, `GAGUGUGACCAAAAGUUACAUGUUUGCACCUUUCUAGUUGAAAAUAAAGUGUAUAUUUUUUCUAUAAGGGCUUGGUUAUUCAUUUAUCCUUCUAAACAUUUCUGAGUUUU` is recorded as 1.06.
For `AUUUACCAUUCCUACAAAAGAGGCAGAAACUUUGAGCAAUCUAGGUUUUUUUUUUUUUUAAGUUUUUUCUUUCUUCCUCUCCUGAAUACACUCCCCAAAACACCCCUUUC`, “RBNS enrichment (R)” read 0.503.
`CACCAGCAGCUCUUGGGAAGGACUUGCUGGGAGGCUGAGAGAGGCUUUGGGCACAGCCUGCUGUCUUUUCCAUUUCCUAAAGUUUACUUCAUUGUCUUGAGGCUUCCAGG`: “RBNS enrichment (R)” 0.539.
For `CAGCUCUGGCUCCCGAAGGGGCAAAGCAGCCUCCUGUUUACAGAAGGUCCACGCGAGCUAUCCCCGUGGCGUUACGAAUGCAGCCAGCGCCCGGCGUUUGUGCAGGGGUG`, “RBNS enrichment (R)” read 0.709.
For `AAACAUAAAAAGAUCAGGAGAGCAUGACACGGUCUCUUUGUGGCCAGUCAGAAAAGCAAACUAACAGAAACAUGAAUUAGAAUUUCAAGCUCAUCUGAGUUUGACCAACA`, “RBNS enrichment (R)” read 0.692.
Under “RBNS enrichment (R)”, `UCUCUGGAGCACAACUACAGCAAACCUCCUCAGUGCCUACGGGACUUGCCAGCAGUGGAGCAUGCACAAGUGUCCCAUUACCAGCCCACAUAGAAAUAUCAAACAGUGAA` is recorded as 2.7.
Under “RBNS enrichment (R)”, `AUGGUGAUUUUUUUACUUAAAAGCAGAAACAGAAGUUGACCUUCCUGACAUGUGUUUAAUAUUCCUCCUGCUUUUACAGAUUCUGACGUUUUCUUGAUAAUUGUAAGCUU` is recorded as 0.272.
Under “RBNS enrichment (R)”, `CCCUGGGACCCAAAUGGAAGGGGAGACUUAUCUCCUGCAAGUUGUCUUUUAACCUGCGCAUGUGUGUGCACAUGUGCAUGCGCAUACACACACACACACACACACACACA` is recorded as 0.744.
`UCUUUUCCCAGCCUUUUGCAGAACACAGUAGACAGAACUGCCACCUUCAAUUGGUACUUUAUUCUUUGCUGCUGUUUUUGUAUAAAAUGACCUAUCCCACGUUUUUGCAU`: “RBNS enrichment (R)” 0.574.
Under “RBNS enrichment (R)”, `AACCCUGCAUUGGGAUAUCGAAGCACUGCUUAGGUUCUGAGGUGUGGGUUCCCUGCCACCCAGGCAAACAGGCUGAAGAUUCUCACCUUUUCUUUCCAGUGUGAUUACAC` is recorded as 0.174.
`CUCACCAGGACCCCUUAUGUAGUGUGCUAUCCUCUAAACUCCUAAGCUAAGUCACCCUGGUGUCAUUCUGUCAUCUGUGCAACUAUUAUUUCCUUUGGGAGUUUCCUCUU` — result for “RBNS enrichment (R)”: 0.324.

Sample 3
Target: ABI1, truncated, D143A, DHFR fusion (Arabidopsis thaliana)
Technique: DHFR PCA, deep sequencing
Matrix: yeast
Notes: methotrexate growth selection, single substitutions
Added: (+)-ABA 710 µM
Reference: wild-type fitted maximum
Direction: higher = stronger binding
Starting sequence: PYL1, truncated, DHFR fusion (Arabidopsis thaliana); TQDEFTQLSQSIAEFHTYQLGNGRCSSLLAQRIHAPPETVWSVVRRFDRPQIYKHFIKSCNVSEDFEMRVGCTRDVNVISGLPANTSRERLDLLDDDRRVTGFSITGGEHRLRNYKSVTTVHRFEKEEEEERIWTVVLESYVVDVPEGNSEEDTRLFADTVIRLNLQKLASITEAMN
`E38K` — result for “relative binding score”: 91%.
Under “relative binding score”, `V43C` is recorded as 91.1%.
`N114D` — result for “relative binding score”: 88.7%.
`S150K`: “relative binding score” 88.5%.
`W41I` — result for “relative binding score”: -22.9%.
For `T39H`, “relative binding score” read 105%.
`G71W` — result for “relative binding score”: 46.1%.
For `E139F`, “relative binding score” read 53.1%.
`D95C`: “relative binding score” 102%.
Under “relative binding score”, `R132D` is recorded as 118%.
`V44I`: “relative binding score” 101%.
For `E64G`, “relative binding score” read 105%.
Under “relative binding score”, `Q31G` is recorded as 66%.
For `A84H`, “relative binding score” read 51.4%.

Sample 4
Target: Histone acetyltransferase KAT6A, both winged helices, GST fusion (KAT6A, Homo sapiens, UniProt Q92794, residues 1-181)
Technique: protein binding microarray
Molecule type: double-stranded DNA, one strand shown
Matrix: in vitro
Tested at: not given
Notes: 8-mer, flanks averaged, mean of 2 arrays, mostly near background
Reference: not given
Direction: higher = stronger binding
Residues (chain): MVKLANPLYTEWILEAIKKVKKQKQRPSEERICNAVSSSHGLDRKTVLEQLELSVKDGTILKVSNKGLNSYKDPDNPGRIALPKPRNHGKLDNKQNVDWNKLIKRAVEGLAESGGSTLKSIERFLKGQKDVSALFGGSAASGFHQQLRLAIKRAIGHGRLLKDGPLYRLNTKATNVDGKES
With `TGGTGACA` the E-score was -0.0488.
The E-score of `CGTCTAGC` is reported as 0.0476.
`CCGGAGGA` gave an E-score of 0.0604.
`AGATTGAC` has an E-score of 0.0465.
With `CAAATGGC` the E-score was -0.0129.
`AGGGGCTA` has an E-score of -0.242.
For `GACCCTGA`, the E-score was -0.0745.
`GCGTTGCC` has an E-score of 0.106.
The E-score of `CGCTATTA` is reported as 0.193.
`AATTTTGT` has an E-score of 0.0134.
The E-score of `CAGCCCGA` is reported as -0.0111.
For `AACCCATG`, the E-score was -0.132.
`ACCGCGGA` has an E-score of 0.318.
With `GCACCAGA` the E-score was -0.132.
For `CATTTAGA`, the E-score was -0.12.
For `GAACTCCA`, the E-score was -0.0579.
With `TCGTTAGA` the E-score was -0.115.
The E-score of `TTTAGAAA` is reported as 0.0504.
The E-score of `CCGAGCAC` is reported as 0.0277.
For `ACAACTTG`, the E-score was -0.125.
With `GAAATATC` the E-score was 0.0217.

For quick reference, copied from above (sample 4):
For `GACCCTGA`, the E-score was -0.0745.
`ACCGCGGA` has an E-score of 0.318.
The E-score of `TTTAGAAA` is reported as 0.0504.
For `CATTTAGA`, the E-score was -0.12.
With `CAAATGGC` the E-score was -0.0129.
The E-score of `CGCTATTA` is reported as 0.193.
For `GAACTCCA`, the E-score was -0.0579.
The E-score of `CGTCTAGC` is reported as 0.0476.
With `GCACCAGA` the E-score was -0.132.
With `GAAATATC` the E-score was 0.0217.
For `AACCCATG`, the E-score was -0.132.
With `TGGTGACA` the E-score was -0.0488.
